Measured values collected from several papers.
Numbered parts are unrelated; each lists some results of a single study. Positions count from the first letter of the parent shown.

Study 1 — target: CCND1, cyclin fold, Cln2 fusion (human); technique: yeast growth competition, sequencing; medium: yeast; setting: weak parent motif; baseline: not given; reading: higher = stronger binding
Starting sequence: CDC25A docking peptide (human); PPHRRRLLFACSP; partner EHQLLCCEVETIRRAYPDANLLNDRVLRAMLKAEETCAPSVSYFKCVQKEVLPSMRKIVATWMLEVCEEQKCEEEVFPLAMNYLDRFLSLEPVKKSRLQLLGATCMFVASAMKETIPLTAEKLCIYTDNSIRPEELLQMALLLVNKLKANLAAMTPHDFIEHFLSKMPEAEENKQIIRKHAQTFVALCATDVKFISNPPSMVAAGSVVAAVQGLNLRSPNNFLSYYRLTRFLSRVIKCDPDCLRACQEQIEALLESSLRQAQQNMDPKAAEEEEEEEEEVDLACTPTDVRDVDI
Change | normalised enrichment score
P13M | 0.235
F9Q | -0.471
P1T | -0.00209
L7Q | -0.387
P13A | 0.309
R4F | 0.49
H3W | 0.665
L8K | 0.0302
R4A | 0.218
R4Q | 0.0868
P13T | 0.469
C11L | 0.292
H3G | 0.413
P13G | 0.522
C11A | 0.488
H3A | -0.224
R5N | -0.607
L8A | -0.0884
L8R | -0.175
A10N | -0.135
F9A | 0.143
A10K | 0.386

Study 2 — technique: DHFR PCA, dose-response; medium: yeast; setting: Hill fit, mean, not affinity; added: (+)-ABA, dose series; reading: lower = more sensitive
Target: ABI1, truncated, D143A, DHFR fusion (Arabidopsis thaliana, UniProt P49597)
Starting sequence: PYL1, truncated, DHFR fusion (Arabidopsis thaliana, UniProt Q8VZS8); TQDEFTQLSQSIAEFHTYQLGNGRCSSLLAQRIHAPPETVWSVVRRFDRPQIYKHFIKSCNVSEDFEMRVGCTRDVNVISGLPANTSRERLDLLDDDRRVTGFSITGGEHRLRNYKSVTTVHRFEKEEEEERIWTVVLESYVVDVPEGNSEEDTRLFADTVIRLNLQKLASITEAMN
Change | ABA EC50 [µM]
E129H | 2.14
C72V | 2.65
G21P | 2.7
T160N | 10.8
V70M | 22.3
P146T | 118
G21C | 3.21
R132W | 10.3
E152H | 3.64
R88V | 1.74
N114Y | 237
P37R | 157
V136A | 46
R90W | 497
R111C | 63
R88Q | 1.8
T173H | 135
D75V | 0.39
A170V | 62.1
N165G | 596
E139Y | 1.92
T106P | 461
T39E | 3.74
A170D | 337
V143F | 839

Study 3 — technique: RNA Bind-n-Seq; molecule type: RNA; medium: in vitro; concentration: 365 nM; baseline: no-protein control; reading: higher = stronger binding
Target: RNA binding protein fox-1 homolog 2, RRM domain, GST-SBP tag (RBFOX2, Homo sapiens, UniProt O43251-10, residues 100-194)
Setting: natural RNA segment, single round, ends assumed
Shared flanks, not repeated: GGGAGUUCUACAGUCCGACGAUC … UGGAAUUCUCGGGUGCCAA
Construct (chain): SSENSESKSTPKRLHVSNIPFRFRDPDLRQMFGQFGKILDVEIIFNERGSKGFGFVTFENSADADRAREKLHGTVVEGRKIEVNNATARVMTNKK
Oligonucleotide | RBNS enrichment (R)
GUAGAGAAAAGCACACUUGUAGGAUAAGUGAAAUGGAUACUACAUCUUUAAACAGUAUUUCAUUGCCUGUGUAUGGAAAAACCAUUUGAAGUGUACCUGUGUACAUAACU | 2.1
UAUCUAGCUUCCAUAAUUUAUACCAGAACAAAAUGUUUUAGCCAGUUUGUUUCUACAUACCUAUGACCACAGCUCUGGAAAAAUAGCAAAUGAAGAAAUGAAUUGCCAAA | 0.326
AGCCCCUCGGAGGGGAGCAACCCGGUGCCUGCUGCUUCACCACUGCCGGCCUCAGGACCCUCCCUGGAGGGGCUGCCACCUCUGCCCUCAUCUCCAGGGCCUUGACCUCA | 0.24
GGGUUUGUUUUGCGCUCUCCUGUCACAAAUGCUGCACUAUUGGUUCUUAAGUUUUUUAUCUCCAGAUCCUAAUUUAUGCCUAUGCAAAAAAUAAAUGACGCCCAAGAGCU | 0.435
UAUAUUUUGUUCUUCAUAGUCUGUUUUUUCUAGCAUGCUUGAUUUAGGAGAGAAUAAAGGGCUAUAUAAUAAUAAAUCCAGAUUUCCGGAUAAGAAUAUUGCCUGGUUAA | 50
UACUUUAUAAUGAUAGAAGUCCAACCGUUUUUUAAAAAAUAAAUUUAAAAUUUAACAGCAAUCAGCUAACAGGCAAAUUAAGAUUUUUACUUCUGGCUGGUGACAGUAAA | 1.06
GACUCUCUGAGGCUUCUUGUUAAAAUGGUUGCCUUUGUUUCUCAGUGAUAGCGAUACAGCUCAGGAAUGGACUAUGGAAACUGAUACCUAGCGACAUUAGCUGAGAACAC | 0.937
UAUGCUCCAAGGAUCACCUCAGUUCUCUCUCAGAUUCUGGAAACAGAUGAAAUGCUCUUUGCAUUGUCUGAACCCUCUCUAAUUCUAUCAUGAUAACGCUACUGUGACGC | 0.429

Study 4 — target: BATF2, bZIP domain (human); technique: DHFR protein complementation; medium: yeast; baseline: wild-type JUN-FOS pair; reading: higher = stronger binding
Setting: single substitutions, most at no-binding floor
Starting sequence: JUN, bZIP domain (human); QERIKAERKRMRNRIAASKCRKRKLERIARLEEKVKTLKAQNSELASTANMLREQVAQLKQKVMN; partner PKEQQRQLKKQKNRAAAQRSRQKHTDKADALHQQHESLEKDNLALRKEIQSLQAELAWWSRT
Change | binding fitness
R53M | -1.12 natural log
T48G | -1.19 natural log
E33R | -0.537 natural log
A40W | -0.722 natural log
T37M | 0.163 natural log
Q58H | -0.396 natural log
R30V | 0.0154 natural log
E33I | -0.63 natural log
E33N | -0.541 natural log
A49N | -1.54 natural log

Study 5 — technique: universal PBM; molecule type: double-stranded DNA, one strand shown; medium: in vitro; concentration: 600 nM; reading: higher = stronger binding
Target: Sal-like protein 4, full length isoform A (SALL4, Homo sapiens, UniProt Q9UJQ4, residues 1-1053)
UniProt Q9UJQ4, sequence (whole entry, looked up): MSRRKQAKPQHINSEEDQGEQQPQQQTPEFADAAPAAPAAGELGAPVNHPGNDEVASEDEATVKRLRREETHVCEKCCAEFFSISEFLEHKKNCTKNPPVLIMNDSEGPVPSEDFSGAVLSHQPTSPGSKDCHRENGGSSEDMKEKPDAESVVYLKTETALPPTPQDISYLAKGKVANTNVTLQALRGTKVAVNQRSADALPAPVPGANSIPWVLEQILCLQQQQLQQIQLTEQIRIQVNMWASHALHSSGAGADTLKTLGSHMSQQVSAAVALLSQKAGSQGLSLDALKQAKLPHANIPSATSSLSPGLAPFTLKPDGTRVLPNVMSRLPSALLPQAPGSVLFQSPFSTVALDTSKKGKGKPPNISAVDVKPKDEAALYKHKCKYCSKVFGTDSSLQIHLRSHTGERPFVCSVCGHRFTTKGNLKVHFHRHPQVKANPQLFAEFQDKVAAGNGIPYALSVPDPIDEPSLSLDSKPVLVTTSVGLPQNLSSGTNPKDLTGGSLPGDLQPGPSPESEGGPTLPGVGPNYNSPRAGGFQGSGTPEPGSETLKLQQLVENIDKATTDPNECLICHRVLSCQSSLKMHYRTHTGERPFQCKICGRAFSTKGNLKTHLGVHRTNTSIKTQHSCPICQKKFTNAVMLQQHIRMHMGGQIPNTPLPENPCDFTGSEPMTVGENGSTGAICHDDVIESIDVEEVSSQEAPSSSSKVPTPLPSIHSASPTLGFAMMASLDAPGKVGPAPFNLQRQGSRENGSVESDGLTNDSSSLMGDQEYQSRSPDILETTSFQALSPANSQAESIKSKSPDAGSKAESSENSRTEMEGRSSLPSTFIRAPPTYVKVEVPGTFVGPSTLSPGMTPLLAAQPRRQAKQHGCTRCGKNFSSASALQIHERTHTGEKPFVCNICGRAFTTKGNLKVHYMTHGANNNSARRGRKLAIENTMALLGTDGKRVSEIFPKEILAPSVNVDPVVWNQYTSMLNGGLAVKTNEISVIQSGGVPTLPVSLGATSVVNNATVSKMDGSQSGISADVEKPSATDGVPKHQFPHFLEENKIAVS
Setting: 8-mer, flanks averaged, mean of replicates
Oligonucleotide | E-score
TAGGCACA | -0.0424
GGCGATTA | 0.0258
AAAGGTTG | -0.0676
GAACTCTC | -0.209
AAAAGATC | 0.091
AGAAATGA | 0.328
TCTGGCAA | 5.5e-05
GCCAGCAC | -0.209
GAAGAGGC | -0.0313
GGTCCACA | -0.203
CAGTTCCC | -0.294
ACTAACCT | 0.0159
GAGTGAAC | -0.0791
AGATGGGA | 0.00281
TCCCTAGA | 0.0121
ACCCTCTA | -0.0211
AAGCGCGT | -0.171
AGAGAAGA | 0.0533

Repeated from above (study 1):
Change | normalised enrichment score
L8R | -0.175
P13T | 0.469
L8K | 0.0302
H3A | -0.224
A10K | 0.386
